Measured values collected from several papers.
Each line is one published result; not all experiments were run side by side. Numbers after ± are the reported error.
CDK4 with cyclin D3: Cyclin-dependent kinase 4, with cyclin D3 (CDK4, Homo sapiens, UniProt P11802)
Chain of UniProt P11802 (whole entry, looked up): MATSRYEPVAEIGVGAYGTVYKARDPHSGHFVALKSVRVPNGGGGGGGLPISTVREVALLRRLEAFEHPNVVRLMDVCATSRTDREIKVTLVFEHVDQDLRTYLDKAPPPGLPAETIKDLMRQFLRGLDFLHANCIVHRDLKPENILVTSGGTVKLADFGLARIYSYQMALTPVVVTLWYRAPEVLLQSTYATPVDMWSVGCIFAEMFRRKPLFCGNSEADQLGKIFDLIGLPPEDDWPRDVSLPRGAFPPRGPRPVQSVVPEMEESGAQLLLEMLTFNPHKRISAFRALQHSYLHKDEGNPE
AKR1C2: Aldo-keto reductase family 1 member C2 (AKR1C2, Homo sapiens, UniProt P52895)
Chain of UniProt P52895 (whole entry, looked up): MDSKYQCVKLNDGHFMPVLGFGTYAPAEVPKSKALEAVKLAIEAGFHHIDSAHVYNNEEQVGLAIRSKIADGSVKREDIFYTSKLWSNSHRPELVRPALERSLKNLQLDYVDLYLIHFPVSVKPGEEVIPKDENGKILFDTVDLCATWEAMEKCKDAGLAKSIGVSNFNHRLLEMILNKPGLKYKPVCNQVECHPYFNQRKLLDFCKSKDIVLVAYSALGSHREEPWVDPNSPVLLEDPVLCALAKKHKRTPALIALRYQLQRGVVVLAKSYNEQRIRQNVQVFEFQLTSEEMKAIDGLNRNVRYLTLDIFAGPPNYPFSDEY
AMY2: Pancreatic alpha-amylase (AMY2, Sus scrofa, UniProt P00690)
Chain of UniProt P00690 (whole entry, looked up): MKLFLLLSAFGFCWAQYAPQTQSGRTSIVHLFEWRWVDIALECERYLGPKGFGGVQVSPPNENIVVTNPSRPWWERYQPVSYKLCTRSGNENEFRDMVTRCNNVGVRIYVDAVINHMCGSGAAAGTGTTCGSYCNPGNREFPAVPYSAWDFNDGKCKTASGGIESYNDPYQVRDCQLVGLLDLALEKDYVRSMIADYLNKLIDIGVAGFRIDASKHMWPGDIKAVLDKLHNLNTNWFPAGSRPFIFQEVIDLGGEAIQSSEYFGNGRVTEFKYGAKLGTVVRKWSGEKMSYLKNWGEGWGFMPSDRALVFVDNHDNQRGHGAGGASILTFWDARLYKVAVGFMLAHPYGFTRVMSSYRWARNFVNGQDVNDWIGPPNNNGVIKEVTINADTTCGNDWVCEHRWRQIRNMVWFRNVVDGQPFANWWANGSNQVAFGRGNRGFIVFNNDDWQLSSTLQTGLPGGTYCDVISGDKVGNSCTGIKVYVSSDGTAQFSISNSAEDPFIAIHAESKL
hdac10: Polyamine deacetylase HDAC10 (hdac10, Danio rerio, UniProt F1QCV2)
Chain of UniProt F1QCV2 (whole entry, looked up): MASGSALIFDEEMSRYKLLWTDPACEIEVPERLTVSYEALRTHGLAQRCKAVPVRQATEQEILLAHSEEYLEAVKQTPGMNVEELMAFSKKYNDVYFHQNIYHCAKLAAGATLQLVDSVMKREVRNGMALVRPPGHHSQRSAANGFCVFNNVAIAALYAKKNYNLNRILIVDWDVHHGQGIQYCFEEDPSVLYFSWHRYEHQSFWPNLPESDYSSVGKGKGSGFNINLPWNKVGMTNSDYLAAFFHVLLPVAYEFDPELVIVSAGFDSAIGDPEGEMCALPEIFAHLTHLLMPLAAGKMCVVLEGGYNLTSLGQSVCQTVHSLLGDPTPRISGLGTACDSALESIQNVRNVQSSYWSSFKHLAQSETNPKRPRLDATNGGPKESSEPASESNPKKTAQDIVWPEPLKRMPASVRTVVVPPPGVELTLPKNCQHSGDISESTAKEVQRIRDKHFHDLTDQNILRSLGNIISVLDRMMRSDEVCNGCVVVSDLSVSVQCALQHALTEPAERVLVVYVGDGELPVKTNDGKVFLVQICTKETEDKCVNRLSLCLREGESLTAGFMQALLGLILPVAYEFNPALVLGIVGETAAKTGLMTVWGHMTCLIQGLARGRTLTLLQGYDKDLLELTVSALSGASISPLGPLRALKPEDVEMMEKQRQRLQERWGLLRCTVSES
Ectonucleoside triphosphate diphosphohydrolase 8: Ectonucleoside triphosphate diphosphohydrolase 8 (Homo sapiens, UniProt Q5MY95)
Chain of UniProt Q5MY95 (whole entry, looked up): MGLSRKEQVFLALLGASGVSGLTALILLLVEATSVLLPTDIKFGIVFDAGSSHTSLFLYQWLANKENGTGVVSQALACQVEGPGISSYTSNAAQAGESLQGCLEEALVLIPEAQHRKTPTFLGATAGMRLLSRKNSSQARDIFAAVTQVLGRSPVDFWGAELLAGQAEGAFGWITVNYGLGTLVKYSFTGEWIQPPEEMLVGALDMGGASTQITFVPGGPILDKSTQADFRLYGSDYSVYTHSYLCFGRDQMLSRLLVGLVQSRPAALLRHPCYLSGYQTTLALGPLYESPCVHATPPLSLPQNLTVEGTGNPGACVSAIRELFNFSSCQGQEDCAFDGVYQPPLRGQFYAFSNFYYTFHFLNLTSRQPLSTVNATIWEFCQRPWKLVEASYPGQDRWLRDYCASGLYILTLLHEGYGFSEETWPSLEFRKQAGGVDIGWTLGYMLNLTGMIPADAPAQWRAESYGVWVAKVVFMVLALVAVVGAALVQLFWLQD
MAOB: Amine oxidase [flavin-containing] B (MAOB, Homo sapiens, UniProt P27338)
Chain of UniProt P27338 (whole entry, looked up): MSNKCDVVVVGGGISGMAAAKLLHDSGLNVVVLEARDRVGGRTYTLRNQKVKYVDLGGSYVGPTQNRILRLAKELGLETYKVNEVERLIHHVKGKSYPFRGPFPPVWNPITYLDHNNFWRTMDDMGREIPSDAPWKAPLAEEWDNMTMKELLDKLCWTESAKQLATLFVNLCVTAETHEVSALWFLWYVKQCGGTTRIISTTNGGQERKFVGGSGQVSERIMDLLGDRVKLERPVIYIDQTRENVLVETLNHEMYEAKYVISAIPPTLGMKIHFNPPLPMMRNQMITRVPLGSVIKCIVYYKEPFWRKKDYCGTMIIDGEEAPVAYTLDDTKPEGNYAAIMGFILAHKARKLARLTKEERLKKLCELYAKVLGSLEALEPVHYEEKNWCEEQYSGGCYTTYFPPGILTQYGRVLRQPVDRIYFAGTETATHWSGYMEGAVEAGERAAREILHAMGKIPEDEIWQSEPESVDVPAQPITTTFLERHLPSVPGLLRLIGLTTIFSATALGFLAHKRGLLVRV
Sigmar1: Sigma non-opioid intracellular receptor 1 (Sigmar1, Rattus norvegicus, UniProt Q9R0C9)
Chain of UniProt Q9R0C9 (whole entry, looked up): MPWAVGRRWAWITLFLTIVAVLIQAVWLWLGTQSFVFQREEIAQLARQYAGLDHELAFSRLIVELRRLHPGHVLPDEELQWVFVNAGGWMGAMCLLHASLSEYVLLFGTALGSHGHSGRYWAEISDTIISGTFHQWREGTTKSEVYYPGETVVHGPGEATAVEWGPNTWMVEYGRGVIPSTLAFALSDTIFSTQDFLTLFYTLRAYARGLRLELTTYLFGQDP
PDK1: [Pyruvate dehydrogenase (acetyl-transferring)] kinase isozyme 1, mitochondrial (PDK1, Homo sapiens, UniProt Q15118)
Chain of UniProt Q15118 (whole entry, looked up): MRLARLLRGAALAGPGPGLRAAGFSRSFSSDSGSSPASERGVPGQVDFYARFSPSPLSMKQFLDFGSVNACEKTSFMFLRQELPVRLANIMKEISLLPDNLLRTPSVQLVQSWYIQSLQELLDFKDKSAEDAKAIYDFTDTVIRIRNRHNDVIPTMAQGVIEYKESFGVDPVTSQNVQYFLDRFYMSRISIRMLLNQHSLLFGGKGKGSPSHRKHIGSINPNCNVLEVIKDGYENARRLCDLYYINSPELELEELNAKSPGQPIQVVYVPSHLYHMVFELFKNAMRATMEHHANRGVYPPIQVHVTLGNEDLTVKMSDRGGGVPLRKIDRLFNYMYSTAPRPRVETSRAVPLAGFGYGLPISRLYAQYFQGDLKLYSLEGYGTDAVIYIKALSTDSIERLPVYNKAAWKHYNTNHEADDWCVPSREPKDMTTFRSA
ELANE: Neutrophil elastase (ELANE, Homo sapiens, UniProt P08246)
Chain of UniProt P08246 (whole entry, looked up): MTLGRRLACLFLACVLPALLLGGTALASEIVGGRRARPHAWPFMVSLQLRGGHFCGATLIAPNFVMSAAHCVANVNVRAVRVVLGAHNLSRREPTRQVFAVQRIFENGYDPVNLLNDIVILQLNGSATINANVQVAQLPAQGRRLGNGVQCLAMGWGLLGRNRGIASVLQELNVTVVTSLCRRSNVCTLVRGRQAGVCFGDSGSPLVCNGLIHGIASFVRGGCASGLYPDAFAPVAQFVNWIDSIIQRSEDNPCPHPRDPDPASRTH
uidA: Beta-glucuronidase (uidA, Escherichia coli, UniProt P05804)
Chain of UniProt P05804 (whole entry, looked up): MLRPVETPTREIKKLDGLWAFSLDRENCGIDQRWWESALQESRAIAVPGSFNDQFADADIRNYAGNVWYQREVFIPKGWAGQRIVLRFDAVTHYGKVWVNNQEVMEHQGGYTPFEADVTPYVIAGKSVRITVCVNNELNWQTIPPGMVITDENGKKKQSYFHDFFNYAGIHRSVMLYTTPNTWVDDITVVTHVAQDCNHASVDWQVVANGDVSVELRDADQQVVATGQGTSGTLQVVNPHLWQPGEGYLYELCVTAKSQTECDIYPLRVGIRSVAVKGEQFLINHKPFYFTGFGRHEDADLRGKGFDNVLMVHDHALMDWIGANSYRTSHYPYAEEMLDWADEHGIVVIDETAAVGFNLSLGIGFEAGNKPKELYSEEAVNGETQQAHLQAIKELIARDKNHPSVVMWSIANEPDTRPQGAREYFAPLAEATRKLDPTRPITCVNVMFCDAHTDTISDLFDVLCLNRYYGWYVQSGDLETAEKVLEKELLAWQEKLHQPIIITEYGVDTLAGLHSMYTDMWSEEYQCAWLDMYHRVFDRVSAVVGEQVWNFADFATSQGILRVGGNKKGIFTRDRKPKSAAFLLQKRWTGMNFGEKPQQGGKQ
Chain of UniProt Q13882 (whole entry, looked up): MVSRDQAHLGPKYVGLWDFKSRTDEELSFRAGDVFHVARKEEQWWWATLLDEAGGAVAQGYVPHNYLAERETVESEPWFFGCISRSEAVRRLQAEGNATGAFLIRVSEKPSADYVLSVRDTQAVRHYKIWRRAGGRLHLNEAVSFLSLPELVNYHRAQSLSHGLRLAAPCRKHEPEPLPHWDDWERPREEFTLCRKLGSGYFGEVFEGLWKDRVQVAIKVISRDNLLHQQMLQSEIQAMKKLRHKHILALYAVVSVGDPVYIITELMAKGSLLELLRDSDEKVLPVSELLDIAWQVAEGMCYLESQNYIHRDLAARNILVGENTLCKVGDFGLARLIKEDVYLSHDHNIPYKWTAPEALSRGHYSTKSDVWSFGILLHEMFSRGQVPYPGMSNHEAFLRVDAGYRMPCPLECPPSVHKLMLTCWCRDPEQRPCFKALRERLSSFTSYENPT

CCCCCCCCCCCC(=O)N[C@H](CO)C[C@@H](O)c1ccccc1 — inhibition (CERT1 (Homo sapiens, UniProt Q9Y5P4); target engagement in cells, BRET; HeLa; 0.2 µM): ~40%
CC(C)Cn1cc(-c2nc(Nc3ccc(OCCCCCCC(=O)NO)cc3)ncc2F)nn1 — inhibition (CDK4 with cyclin D3; enzyme activity, inhibitor, TR-FRET; 50 nM): 5.13%
CC(C)(O)C1=CCC(C2CC[C@]3(C)C2CCC2[C@@]4(C)CCC(O)C(C)(C)C4CC[C@]23C)C1=O (stereo partly drawn) — inhibition (PTPN1 (Homo sapiens, UniProt P18031); enzyme activity, inhibitor, absorbance; 50 µM): 74.8%
COc1cc2c(cc1Cl)[C@H]1CC[C@@]3(C)C(=O)CC[C@H]3[C@@H]1CC2 — inhibition (AKR1C2; enzyme activity, inhibitor, absorbance; 10 µM, pH 9): 60%
O=C(CN1C(C(=O)c2ccccc2)=C(O)c2ccccc2S1(=O)=O)Nc1ccccc1Br — inhibition (AMY2; enzyme activity, inhibitor, absorbance; 500 µM): 70.8%
CC(C)Cn1cc(-c2ccnc(Nc3ccc(C(=O)Nc4ccccc4N)cc3)n2)nn1 — inhibition (CDK4 with cyclin D3; enzyme activity, inhibitor, TR-FRET; 50 nM): -1.14%
O=c1cc(CCl)[nH]c2c(-c3cccc4ccccc34)c(C(F)(F)F)nn12 — inhibition (SCN9A (Homo sapiens, UniProt Q15858); sodium current, whole-cell patch clamp; HEK293, stable; 20 µM): 7 ± 3%
CCCCCCCCCCCCCCCC(=O)N[C@@H](CCCCN)C(=O)N[C@@H](CCCCN)C(=O)N[C@@H](CO)C(=O)N[C@@H](CCCNC(=N)N)C(=O)N[C@@H](C)C(=O)N[C@@H](CC(C)C)C(=O)N[C@@H](Cc1ccccc1)C(N)=O — inhibition (F2RL3 (Homo sapiens, UniProt Q96RI0); platelet aggregation, antagonist; human gel-filtered platelets; concentration not given, with: AYPGKF 200 µM): inactive
O=C(/C=C/c1ccc(Cl)cc1Cl)NO — inhibition (hdac10; 1 µM): > 95%
O=C(O)c1cc(S(=O)(=O)N2CCOCC2)ccc1Cl — inhibition (Ectonucleoside triphosphate diphosphohydrolase 8; enzyme activity, inhibitor, absorbance; 100 µM): 36%
C[C@@]12CC[C@@H]3c4cc(I)c(O)cc4CC[C@H]3[C@@H]1CCC2=O — inhibition (AKR1C2; enzyme activity, inhibitor, absorbance; 100 µM, pH 9): 50%
COC(=O)C(Cc1ccccn1)NC(=O)CCCCCCC(=O)NO (stereo not drawn) — inhibition (hdac10; 1 µM): 64%
O=C(/C=C/c1ccc2c(c1)OCCO2)c1ccc(Cl)s1 — inhibition (MAOB; enzyme activity, inhibitor, fluorescence; 1 µM): 89.5%
CC(C)(C)OC(=O)N1CCC[C@H](O)[C@H]1CC(=O)Cn1cnc2cc(Br)c(Cl)cc2c1=O (relative stereo) — inhibition (Bifunctional glutamate/proline--tRNA ligase, prolyl-tRNA synthetase domain (EPRS1, Homo sapiens, UniProt P07814); enzyme activity; concentration not given, with: [14C]-proline): no inhibition
C/C(=N\OCCCN1CCCCC1)c1ccc(S(C)(=O)=O)cc1 — inhibition (Sigmar1; radioligand binding; 10 µM): 91.3%
O=C(CCCCCCN1CCN(c2ccc(Nc3ncc(F)c(-c4cn(C5CCCC5)nn4)n3)cc2)CC1)NO — inhibition (CDK4 with cyclin D3; enzyme activity, inhibitor, TR-FRET; 5 µM): 96.6%
CN(C)C(=O)c1ccc(S(=O)(=O)c2ccc(NC(=O)[C@@](C)(O)C(F)(F)F)c(Cl)c2)cc1 — inhibition (PDK1; enzyme activity, inhibitor, ATP luminescence; 10 µM): 4.77%
COc1ccc(Cn2ccc3ccc(C(=O)NO)cc32)cc1 — inhibition (hdac10; 0.1 µM): 14%
O=C(Nc1ccc(Cl)cc1)c1cccc(S(=O)(=O)N2CCOCC2)c1 — inhibition (Ectonucleoside triphosphate diphosphohydrolase 3 (Homo sapiens, UniProt O75355); enzyme activity, inhibitor, absorbance; 100 µM): 9%
CCc1nc2ccccc2n1S(=O)(=O)c1ccc2c(c1)C(=O)CC2=O — inhibition (ELANE; enzyme activity, inhibitor, fluorescence; 10 µM): 64%
CC[C@H](C)[C@H](NC(=O)[C@H](CCCNC(=N)N)NC(=O)[C@H](CCCCN)NC(=O)[C@@H]1CCCN1C(=O)[C@@H]1CCCN1CCCN(CC[C@H](N)C(=O)O)C[C@H]1O[C@@H](n2cnc3c(N)ncnc32)[C@H](O)[C@@H]1O)C(=O)N[C@@H](C)C(N)=O — inhibition (EHMT2 (Homo sapiens, UniProt Q96KQ7); enzyme activity, inhibitor; 100 µM): < 30%
Cc1cccc(/C=C/C(=O)c2cnn(-c3ccccc3)c2C)c1 — inhibition (AMY2; enzyme activity, inhibitor, absorbance; 40 µM): 14.9%
N[C@H]1CCCc2c1[nH]c1ccc(Cl)cc21 — inhibition (HTR3A (Homo sapiens, UniProt P46098); ligand displacement, radioligand; 10 µM): 8.2%
CCOC(=O)C1=C(C)NC2=C(C(=O)CC(C)(C)C2)C1c1ccc(OCC(=O)NN=Cc2cc(Br)c(O)c(Br)c2)cc1OCC(=O)NN=Cc1cc(Br)c(O)c(Br)c1 (stereo not drawn) — inhibition (MAL32 (Saccharomyces cerevisiae, UniProt P38158); inhibitor; 0.5 mM, pH 6.8, 37 °C): 92.7%
O=C1CC(=O)c2cc(S(=O)(=O)n3cnc4ccccc43)ccc21 — inhibition (ELANE; enzyme activity, inhibitor, fluorescence; 0.1 µM): 14.3%
O=C(O[C@H]1Cc2c(O)cc(O)cc2O[C@@H]1c1ccc(O)cc1)c1cc(O)c(O)c(O)c1 — inhibition (PNLIP (Sus scrofa, UniProt P00591); enzyme activity, inhibitor; 10 µM): 95.9%
O=C(NO)c1coc(-c2cccs2)n1 — inhibition (hdac10; 1 µM): 37%
CCOC(=O)c1c(NC(=O)CN2CCN(c3ccccn3)CC2)sc2c1CCC(c1ccccc1)C2 (stereo not drawn) — inhibition (PDK1; enzyme activity, inhibitor, ATP luminescence; 100 µg/mL): 16.8%
C/C(=N\OCCN1CCCC1)c1ccccc1C(F)(F)F — inhibition (Sigmar1; radioligand binding; 1 µM): 63%
Cc1nc2cc(-c3cc4c(cc3F)NC(=O)CO4)cc(Cl)c2o1 — inhibition (Programmed cell death 1 ligand 1, with PD-1 (CD274, Homo sapiens, UniProt Q9NZQ7); PD-1/PD-L1 binding, inhibitor, TR-FRET; 25 µM): ≥ 20%
C/C(=N\OCCCN1CCCC1)c1ccc(C(F)(F)F)cc1 — inhibition (Sigmar1; radioligand binding; 10 µM): 94%
O=C(c1ccc(Oc2ccc(Cl)cc2)c([N+](=O)[O-])c1)C(Cl)Cl — inhibition (PDK1; enzyme activity, inhibitor, ATP luminescence; 1 µM): 50.3%
C[C@]12CC[C@@H]3c4cc(I)c(O)c(I)c4CC[C@H]3[C@@H]1CCC2=O — inhibition (AKR1C2; enzyme activity, inhibitor, absorbance; 10 µM, pH 9): 21.3%
COc1cc(O)c2c(=O)cc(-c3ccccc3)oc2c1 — inhibition (α-glucosidase (Saccharomyces cerevisiae); inhibitor; 10 µg/mL, with: pNPG): 32 ± 1.07%
C[C@@]12CC[C@@H]3c4cc(Br)c(O)c(Br)c4CC[C@H]3[C@@H]1CCC2=O — inhibition (AKR1C2; enzyme activity, inhibitor, absorbance; 100 µM, pH 9): 86%
COc1ccc(C(=O)NO)cc1OCc1ccccc1 — inhibition (hdac10; 1 µM): < 10%
Oc1cccnc1O — inhibition (1-deoxy-D-xylulose 5-phosphate reductoisomerase (Escherichia coli K-12, UniProt P45568); enzyme activity, inhibitor, absorbance; 100 µM): 91.4%
COc1ccc(NC(=S)Nc2cccc3cccnc23)cc1 — inhibition (uidA; enzyme activity, inhibitor, absorbance; 100 µM): 52.6%
Cc1nc2ccccc2n1S(=O)(=O)c1ccc2c(c1)C(=O)CC2=O — inhibition (ELANE; enzyme activity, inhibitor, fluorescence; 1 µM): 25.2%
C[C@]12CC[C@@H]3c4cc(Cl)c(O)cc4CC[C@H]3[C@@H]1CCC2=O — inhibition (AKR1C2; enzyme activity, inhibitor, absorbance; 100 µM, pH 9): 88%
C(=N\N=c1\scc(-c2ccccc2)n1-c1ccccc1)/c1ccc(N2CCOCC2)cc1 — inhibition (CA2 (Bos taurus, UniProt P00921); enzyme activity, inhibitor, absorbance; 500 µM): 87.6%
COc1ccc(C(=O)NO)cc1NC(=O)c1cccc(-c2ccccc2)c1 — inhibition (hdac10; 0.1 µM): < 10%
S=C(Nc1ccc(Cl)cc1)Nc1cccc2cccnc12 — inhibition (uidA; enzyme activity, inhibitor, absorbance; 100 µM): 53.9%
C/C(=N\OCCN(C)Cc1ccccc1)c1ccc(C(F)(F)F)cc1 — inhibition (Sigmar1; radioligand binding; 10 µM): 102%
COC(CO)c1ccc(O)c(O)c1 (stereo not drawn) — inhibition (AMY2; enzyme activity, inhibitor; 500 µM): < 10%
O=C(c1cccc(S(=O)(=O)NC2CC2)c1)N1CCOCC1 — inhibition (Ectonucleoside triphosphate diphosphohydrolase 8; enzyme activity, inhibitor, absorbance; 100 µM): 35%
Brc1ccc2c(c1)[nH]c1ncnc(Nc3ccccc3)c12 — inhibition (PTK6 (Homo sapiens, UniProt Q13882); enzyme activity, inhibitor, ADP detection; 2 µM): 17.1%
COc1cc(C(=O)NC2CCC(N3CCN(CC4CCC5(CCCC5)C4)CC3)CC2)c(F)cc1Nc1ncc2c(n1)N(C1CCCC1(F)F)CC(F)(F)C(=O)N2C (stereo not drawn) — inhibition (FGR (Homo sapiens, UniProt P09769); cell-free assay, TR-FRET; 10 µM): 0.45%
C[C@@]12CC[C@@H]3c4ccc(O)c(I)c4CC[C@H]3[C@@H]1CCC2=O — inhibition (AKR1C2; enzyme activity, inhibitor, absorbance; 100 µM, pH 9): 75%
C/C(=N\OCCN1CCCC1)c1cccc(C(F)(F)F)c1 — inhibition (Sigmar1; radioligand binding; 10 µM): 56.4%
O=C(NO)c1coc(-c2ccccc2)n1 — inhibition (hdac10; 1 µM): 45%
C#CCSc1nc(Sc2nnnn2-c2ccccc2)c2nnn(Cc3ccccc3Cl)c2n1 — inhibition (MAOB; enzyme activity, inhibitor, luciferase; 10 µM): ~40%
O=C(NO)c1ccc(Cl)c(NC(=O)c2cccc(OCc3ccccc3)c2)c1 — inhibition (hdac10; 0.1 µM): 11%
COc1cc(OC2CCN(C)CC2)ccc1Nc1ncc2c(n1)n(C1CCCC1)c(=O)n2C — inhibition (PTK2 (Homo sapiens, UniProt Q05397); enzyme activity, inhibitor; 1 µM): > 40%
